Measured values pooled from the literature.
Lines come from different studies, so protocols differ. ± marks the error that the study gave.
Target: ATP-dependent translocase ABCB1 (ABCB1, Homo sapiens, UniProt P08183)
Sequence of UniProt P08183 (whole entry, looked up): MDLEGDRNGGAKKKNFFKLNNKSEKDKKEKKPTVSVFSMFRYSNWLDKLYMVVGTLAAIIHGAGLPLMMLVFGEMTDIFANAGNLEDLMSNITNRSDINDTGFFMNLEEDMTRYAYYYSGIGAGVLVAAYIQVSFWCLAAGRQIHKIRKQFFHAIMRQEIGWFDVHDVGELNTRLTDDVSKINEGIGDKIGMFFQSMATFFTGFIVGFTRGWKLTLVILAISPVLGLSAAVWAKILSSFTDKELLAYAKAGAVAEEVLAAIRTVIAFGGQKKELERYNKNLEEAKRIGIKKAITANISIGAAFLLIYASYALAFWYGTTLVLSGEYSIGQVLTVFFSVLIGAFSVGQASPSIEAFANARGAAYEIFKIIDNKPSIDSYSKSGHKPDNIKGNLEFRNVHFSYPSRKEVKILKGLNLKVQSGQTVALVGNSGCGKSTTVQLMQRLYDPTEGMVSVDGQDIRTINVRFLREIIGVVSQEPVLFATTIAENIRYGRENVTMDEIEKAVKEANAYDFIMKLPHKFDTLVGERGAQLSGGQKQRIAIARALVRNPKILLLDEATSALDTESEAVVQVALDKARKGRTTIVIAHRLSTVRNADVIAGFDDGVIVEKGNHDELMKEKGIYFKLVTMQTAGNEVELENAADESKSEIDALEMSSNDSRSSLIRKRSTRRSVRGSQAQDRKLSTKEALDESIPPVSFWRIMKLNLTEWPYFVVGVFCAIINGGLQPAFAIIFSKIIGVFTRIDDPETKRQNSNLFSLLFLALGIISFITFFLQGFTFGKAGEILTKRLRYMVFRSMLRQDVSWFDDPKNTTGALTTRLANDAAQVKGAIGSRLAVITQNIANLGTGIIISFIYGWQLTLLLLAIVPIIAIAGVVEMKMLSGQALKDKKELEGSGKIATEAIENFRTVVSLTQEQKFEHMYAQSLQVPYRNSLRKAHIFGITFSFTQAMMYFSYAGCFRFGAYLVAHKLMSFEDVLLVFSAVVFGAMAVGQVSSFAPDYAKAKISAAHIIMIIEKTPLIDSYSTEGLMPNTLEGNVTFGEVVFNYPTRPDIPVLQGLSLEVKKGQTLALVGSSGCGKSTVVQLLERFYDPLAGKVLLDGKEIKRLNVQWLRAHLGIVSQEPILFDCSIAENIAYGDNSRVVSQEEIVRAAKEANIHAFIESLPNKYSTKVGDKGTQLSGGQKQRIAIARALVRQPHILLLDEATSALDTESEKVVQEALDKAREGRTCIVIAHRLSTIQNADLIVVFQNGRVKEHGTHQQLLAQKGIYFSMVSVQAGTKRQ

Cc1ccc(Nc2nccc(N(C)c3ccc4c(C)n(C)nc4c3)n2)cc1S(N)(=O)=O
efflux ratio (bidirectional transport; MDCK-MDR1; 5 µM, 240 min, together with: canertinib 5 µM; reference: B-A over A-B): 1.2

CCOC(=O)c1csc([C@@H](NC(=O)c2csc([C@@H](NC(=O)OC(C)(C)C)C(C)C)n2)C(C)C)n1
inhibition (Bodipy-FL-prazosin efflux, flow cytometry; HeLa transduced with BacMam ABCB1; 20 µM, 45 min, 5% FBS; reference: 1 µM tariquidar): 20%

O=C(c1ccoc1)N1CCN(c2cc(-c3ccc(F)cc3)nc3cc(-c4ccccc4)nn23)CC1
IC50 (JC-1 efflux, inhibitor; Jurkat-DNR): 11.8 µM

CCOc1cc2ncc(C#N)c(Nc3ccc(OCc4ccccn4)c(Cl)c3)c2cc1NC(=O)/C=C/CN(C)C
net efflux ratio (substrate, bidirectional transwell permeability; MDCKII cells transfected with ABCB1; 1 µM, 1 h, pH 7.4; reference: without over with elacridar): 4.56

C#Cc1cc(N2CCN(C(=O)c3ccoc3)CC2)n2nc(-c3cccc(Cl)c3)cc2n1
IC50 (JC-1 efflux, inhibitor; Jurkat-DNR): 10.2 ± 3.99 µM

CC[C@]1(O)C[C@@H]2CN(CCc3c([nH]c4ccccc34)[C@@](C(=O)OC)(c3cc4c(cc3OC)N(C)[C@H]3[C@@](O)(C(=O)OC)[C@H](OC(C)=O)[C@]5(CC)C=CCN6CC[C@]43[C@@H]65)C2)C1
Vmax (ATPase activity, substrate; membranes; together with: ATP 1 mM): 17.5 ± 0.5 nmol Pi/min/mg protein

COc1ccccc1-c1cc2nc(-c3ccccc3)cc(N3CCN(C(=O)c4ccco4)CC3)n2n1
IC50 (JC-1 efflux, inhibitor; Jurkat-DNR): 3 ± 0.57 µM

O=C(Nc1cnn2ccc(N3CCC[C@@H]3c3cc(F)ccc3F)nc12)N1CC[C@H](O)C1
Papp (LLC-PK1 cells expressing human ABCB1; 3.5 h, together with: zosuquidar 1 µM; apical to basolateral): 5.19 ± 0.14 ×10⁻⁶ cm/s

CC(C)[C@H](N)c1nc(C(=O)O)cs1
inhibition (calcein-AM efflux, flow cytometry; HeLa transduced with BacMam ABCB1; 20 µM, 10 min, 5% FBS, together with: calcein-AM 0.5 µM; reference: 1 µM tariquidar): < 5%

CN(C)CCC(c1ccc(Cl)cc1)c1ccccn1 (stereo not shown)
efflux ratio (transport; MDCK-MDR1; 10 µM, 90 min; reference: B-A over A-B): < 2

COc1ccccc1-c1cc2nc(-c3ccccc3)cc(N3CCN(C(=O)c4ccoc4)CC3)n2n1
IC50 (JC-1 efflux, inhibitor; Jurkat-DNR): 2.17 ± 0.76 µM

CCOC(=O)c1csc([C@@H](NC(=O)c2csc([C@@H](NC(=O)c3csc([C@@H](NC(=O)OC(C)(C)C)C(C)C)n3)C(C)C)n2)C(C)C)n1
inhibition (Bodipy-FL-prazosin efflux, flow cytometry; HeLa transduced with BacMam ABCB1; 10 µM, 45 min, 5% FBS; reference: 1 µM tariquidar): 75%

COc1cc2c(cc1OC)CN(CCc1ccc(NC(=O)c3cc(OC)c(OC)cc3NC(=O)c3cnc4ccccc4c3)cc1)CC2
rhodamine efflux (inhibitor; patient CD56+ mononuclear cells, human patients; intravenous, 150 mg, 48 h; reference: pre-dose): decreased

CC(C)[C@H](NC(=O)OC(C)(C)C)c1nc(C(=O)O)cs1
inhibition (calcein-AM efflux, flow cytometry; HeLa transduced with BacMam ABCB1; 20 µM, 10 min, 5% FBS, together with: calcein-AM 0.5 µM; reference: 1 µM tariquidar): < 5%

O=C(c1ccoc1)N1CCN(c2cc(-c3ccccc3)nc3cc(-c4cccc(Cl)c4)nn23)CC1
IC50 (JC-1 efflux, inhibitor; Jurkat-DNR): 8.58 ± 0.63 µM

CCOC(=O)c1csc([C@@H](NC(=O)c2csc([C@@H](N)C(C)C)n2)C(C)C)n1
inhibition (Bodipy-FL-prazosin efflux, flow cytometry; HeLa transduced with BacMam ABCB1; 20 µM, 45 min, 5% FBS; reference: 1 µM tariquidar): 13%

Cc1nnc(C(=O)NC(C)(C)c2nc(C(=O)NCc3ccc(F)cc3)c(O)c(=O)n2C)o1
intracellular accumulation (primary human CD4+ T cells, P-gp high; 1 µM, 30 min, pH 7.4, together with: [3H]-labelled compound; reference: P-gp low CD4+ T cells): 38.4 ± 9.6%

CC(C)NCC(O)COc1cccc2ccccc12 (stereo not shown)
efflux ratio (transport; MDCK-MDR1; 10 µM, 90 min; reference: B-A over A-B): < 2

COc1ccccc1-c1cc2nc(-c3ccccc3)cc(N3CCN(C(=O)c4ccccc4)CC3)n2n1
IC50 (JC-1 efflux, inhibitor; Jurkat-DNR): 2.31 ± 0.79 µM

CC(C)[C@H](NC(=O)OC(C)(C)C)c1nc(C(=O)N[C@H](c2nc(C(=O)N[C@H](c3nc(C(=O)O)cs3)C(C)C)cs2)C(C)C)cs1
inhibition (calcein-AM efflux, flow cytometry; HeLa transduced with BacMam ABCB1; 10 µM, 10 min, 5% FBS, together with: calcein-AM 0.5 µM; reference: 1 µM tariquidar): < 10%

CCCN(CCc1ccccc1)C(=O)[C@@H]1OC(C(=O)O)=C[C@H](O)[C@H]1NC(C)=O
IC50 (JC-1 efflux, inhibitor; Jurkat-DNR): 3.64 ± 1.47 µM

COc1ccc(CNC(=O)c2csc([C@@H](NC(=O)c3csc([C@@H](NC(=O)OC(C)(C)C)C(C)C)n3)C(C)C)n2)c(OC)c1
inhibition (calcein-AM efflux, flow cytometry; HeLa transduced with BacMam ABCB1; 10 µM, 10 min, 5% FBS, together with: calcein-AM 0.5 µM; reference: 1 µM tariquidar): 91%

Repeated from above:
CC(C)[C@H](N)c1nc(C(=O)O)cs1
inhibition (calcein-AM efflux, flow cytometry; HeLa transduced with BacMam ABCB1; 20 µM, 10 min, 5% FBS, together with: calcein-AM 0.5 µM; reference: 1 µM tariquidar): < 5%
